# Experimental data from different studies.
# Parts stem from different laboratories: compare values within a part only. Positions count from the first letter of the parent shown.

# Series 1 — method: DHFR PCA, deep sequencing; matrix: yeast; together with: (+)-ABA 0.11 µM; reference: wild-type fitted maximum; direction: higher = stronger binding
# Target: ABI1, truncated, D143A, DHFR fusion (Arabidopsis thaliana)
# Setting: methotrexate growth selection, single substitutions
# Parent: PYL1, truncated, DHFR fusion (Arabidopsis thaliana); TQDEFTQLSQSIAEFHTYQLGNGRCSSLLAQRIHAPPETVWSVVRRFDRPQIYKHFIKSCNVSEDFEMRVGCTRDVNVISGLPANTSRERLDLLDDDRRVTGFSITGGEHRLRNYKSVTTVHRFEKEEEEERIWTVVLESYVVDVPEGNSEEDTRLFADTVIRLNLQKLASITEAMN; partner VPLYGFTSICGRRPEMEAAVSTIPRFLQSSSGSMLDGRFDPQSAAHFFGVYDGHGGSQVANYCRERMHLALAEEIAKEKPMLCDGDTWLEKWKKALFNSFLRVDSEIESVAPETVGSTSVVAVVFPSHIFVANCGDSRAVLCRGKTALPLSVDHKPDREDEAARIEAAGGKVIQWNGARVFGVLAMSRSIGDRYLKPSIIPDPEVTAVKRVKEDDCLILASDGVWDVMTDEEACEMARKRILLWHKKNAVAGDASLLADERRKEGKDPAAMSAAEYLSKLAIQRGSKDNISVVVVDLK
Substitution,relative binding score
S117H,-2.05%
E109C,8.59%
R69A,28.5%
R45S,1.87%
Y115M,-3.24%
L28Y,1.5%
F103T,-4.76%
S9Y,23.1%
D159H,-4.35%
E14V,-0.492%
N149M,51.9%
E127A,39.5%

# Series 2 — method: protein binding microarray; molecule type: double-stranded DNA, one strand shown; matrix: in vitro; tested at: not given; reference: not given; direction: higher = stronger binding
# Target: Histone acetyltransferase KAT6A, winged helix 1, GST fusion (KAT6A, Homo sapiens, UniProt Q92794, residues 1-85)
# Setting: 8-mer, flanks averaged, mean of 2 arrays, mostly near background
# Target sequence (chain): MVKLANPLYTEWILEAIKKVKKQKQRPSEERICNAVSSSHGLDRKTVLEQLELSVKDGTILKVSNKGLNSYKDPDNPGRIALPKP
Oligonucleotide,E-score
AAAGTGTT,-0.0451
CCGAAAAC,0.0135
ATATGCCA,-0.126
GTCCGGGA,0.0699
GTGAACTA,-0.0872
CAGTCCGA,0.00286
AGACTGCT,-0.186
CCAGAAGG,-0.161
CCGTCAGG,0.183
CACTCACC,-0.118
CGTATTAA,0.0681
AGTTGAGA,-0.241
TCACTTAA,-0.147
GCCGAGGC,0.241
GGCGCGAC,0.266
CTATCCAA,-0.0874
CATCCCCG,0.281
ATTCCTGA,-0.227
AAGAGGCC,-0.0166
AATCGTGT,-0.0577
GATTCACC,0.102
CCGTACAA,0.24
CGTCCTCA,0.044
CTAGTGGC,0.0245
TCCGTTAA,0.214

# Series 3 — target: CCND2, cyclin fold, Cln2 fusion (human); method: yeast growth competition, sequencing; matrix: yeast; setting: weak parent motif; reference: not given; direction: higher = stronger binding
# Parent: DOT1L docking peptide (human); SEAKRRIVFTITT; partner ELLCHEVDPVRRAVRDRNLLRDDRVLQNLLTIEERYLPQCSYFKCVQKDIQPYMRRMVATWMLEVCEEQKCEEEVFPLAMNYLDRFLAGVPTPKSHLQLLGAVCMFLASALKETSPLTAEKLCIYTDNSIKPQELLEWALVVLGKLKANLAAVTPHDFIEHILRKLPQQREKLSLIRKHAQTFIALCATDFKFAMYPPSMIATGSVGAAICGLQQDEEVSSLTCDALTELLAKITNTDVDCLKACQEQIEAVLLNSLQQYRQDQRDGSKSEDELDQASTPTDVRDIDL
Substitution,normalised enrichment score
K4A,0.302
R5A,0.029
V8A,0.151
T10A,0.129
T12A,0.441
T13A,0.62

# Series 4 — target: UBE2E1 UBC core domain (UniProt P51965); method: yeast two-hybrid; matrix: yeast; setting: mostly zero background; reference: not given; direction: higher = stronger interaction
# UniProt P51965, sequence (whole entry, looked up): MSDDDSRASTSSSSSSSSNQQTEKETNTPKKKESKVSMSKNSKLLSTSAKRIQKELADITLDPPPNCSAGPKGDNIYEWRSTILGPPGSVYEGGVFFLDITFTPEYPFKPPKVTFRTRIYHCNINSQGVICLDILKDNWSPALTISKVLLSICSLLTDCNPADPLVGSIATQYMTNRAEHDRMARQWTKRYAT
# B1: RNF111 RING domain (UniProt Q6ZNA4); chain EGTEEDTEEKCTICLSILEEGEDVRRLPCMHLFHQVCVDQWLITNKKCPICRVDIEAQLPSE
# B2: SH3RF2 RING domain (UniProt Q8TEC5); chain DDLTLLDLLECPVCFEKLDVTAKVLPCQHTFCKPCLQRVFKAHKELRCPECRTPVFSNIEAL
# B3: RNF38 RING domain (UniProt Q9H0F5); chain PNNHQSEQTLCVVCMCDFESRQLLRVLPCNHEFHAKCVDKWLKANRTCPICRADASEVHRDS
# B4: TRIM24 RING domain (UniProt O15164); chain EAARLNLLDTCAVCHQNIQSRAPKLLPCLHSFCQRCLPAPQRYLMLPAPMLGSAETPPPVPAPGSPVSGSSPFATQVGVIRCPVCSQECAERHII
# B5: NEURL1 RING domain (UniProt O76050); chain VTPGLGQWSDECTICYEHAVDTVIYTCGHMCLCYACGLRLKKALHACCPICRRPIKDIIKT
# B6: MKRN1 RING domain (UniProt Q9UHC7); chain FAVQRSKDMVCGICMEVVYEKANPSERRFGILSNCNHTYCLKCIRKWRSAKQFESKIIKSCPECRITSNFVIPSE
# B7: TRIM5 RING domain (UniProt Q9C035); chain ILVNVKEEVTCPICLELLTQPLSLDCGHSFCQACLTANHKKSMLDKGESSCPVCRISYQPENIRP
# B8: TRIM40 RING domain (UniProt Q6P9F5); chain LQKDNQEEGVCPICQESLKEAVSTNCGHLFCRVCLTQHVEKASASGVFCCPLCRKPCSEEVLG
# B9: TRIML1 RING domain (UniProt Q8N9V2); chain LMENLREELTCFICLDYFSSPVTTECGHSFCLVCLLRSWEEHNTPLSCPECWRTLEGPHFQS
# B10: TRIM13 RING domain (UniProt O60858); chain MELLEEDLTCPICCSLFDDPRVLPCSHNFCKKCLEGILEGSVRNSLWRPAPFKCPTCRKETSATGINS
# B11: TRIM5 RING domain (UniProt Q9C035); chain LREVKLSPEGQKVDHCARHGEKLLLFCQEDGKVICWLCERSQEHRGHHTFLTEEVAREYQVKL
# B12: TRIM43 RING domain (UniProt Q96BQ3); chain FSHAFQKELTCVICLNYLVDPVTICCGHSFCRPCLCLSWEEAQSPANCPACREPSPKMDFKT
Molecule,lacZ reporter activity
B1 (RNF111 RING domain),12900
B2 (SH3RF2 RING domain),0
B3 (RNF38 RING domain),0
DHGAVGQEMCCPICCSEYVKGEVATELPCHHYFHKPCVSIWLQKSGTCPVCRCMFPPPL (PJA1 RING domain (UniProt Q8NG27)),0
B4 (TRIM24 RING domain),0
B5 (NEURL1 RING domain),0
B6 (MKRN1 RING domain),0
B7 (TRIM5 RING domain),0
B8 (TRIM40 RING domain),0
B9 (TRIML1 RING domain),0
MPIRALCTICSDFFDHSRDVAAIHCGHTFHLQCLIQWFETAPSRTCPQCRIQVGKRTIIN (TRAIP RING domain (UniProt Q9BWF2)),0
B10 (TRIM13 RING domain),0
QVDKAVFHMQSVKCLKCQEQKRAVLPCQHAALCELCAEGSECPICQPGRAHTLQS (UNK RING domain (UniProt Q9C0B0)),0
B11 (TRIM5 RING domain),0
PAELEVQASECVVCLEREAQMIFLNCGHVCCCQQCCQPLRTCPLCRQDIAQRLRIY (LRSAM1 RING domain (UniProt Q6UWE0)),0
B12 (TRIM43 RING domain),0

# Series 5 — method: RNA Bind-n-Seq; molecule type: RNA; matrix: in vitro; tested at: 365 nM; reference: no-protein control; direction: higher = stronger binding
# Target: RNA binding protein fox-1 homolog 2, RRM domain, GST-SBP tag (RBFOX2, Homo sapiens, UniProt O43251-10, residues 100-194)
# Setting: natural RNA segment, single round, ends assumed
# Shared flanks, not repeated: GGGAGUUCUACAGUCCGACGAUC … UGGAAUUCUCGGGUGCCAA
# Target sequence (chain): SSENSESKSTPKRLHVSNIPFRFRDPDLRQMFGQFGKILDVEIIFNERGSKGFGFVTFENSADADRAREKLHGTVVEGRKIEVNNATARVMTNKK
Oligonucleotide,RBNS enrichment (R)
UUGUCUUUCUUUUUUAUUUUUUAAGUAUUGGAAUAAGUCUAAUGAAAAAGAAAGUGCCUUAUUUUUCUUCAUGGUCAUUUAGUCAAGUGUCCUGUAAGAUCAGCUCCUCC,0.689
ACGCCUGGGGGUCCUAGAGGCUGCCCCACCCCAGUGAUUGGGUAGCAGCUCACAUCCCACCCAGCUUCACAAGUGAGGAACCCAGGUGCAUCGGGAGACCCUCGGGGGCU,0.531
AGUUUUUAGACCCCAGAGGGAGAUGAGCUUUUCCAAGCUGUGUCUGGGCCAGAGCCUCUCCUUGCCCUUGCUCCAUCCCGACGGUCACCGUUGGGUCCACGCCUCCACCG,0.336
CCUGUUGGUCCCCUGUUCAGAAUGGAGUGCAGCCCGCCAGCGGAAAGUGUUCAUUCUGCAUAGGUGUGAGGCUUUAUCUGCACACAGGACAUGAAAACCAGCAGAAAGGC,0.232
GACAAUAGCCAGAUGGUUAGUGGGGCAGCCAGGCAGGGAGGACCCAGGGCUGGGAUUCUCCAACCUUAGGCCAUUCCUGCAGCCCUCACCACCUCCAGCCCCUCCAAGCA,0.616
GCCUUUCUCCCCUCUGCUUCCUCAUUACUUUUGUCCUCCCUGGGAGCGUUCGCGCUCUGGGUCACUGGAUUGUUUCGUGUUUAUGUGUGAUUGUACCAAGGAACUUAGCC,0.865
AGGCCUCAACCCCCCACCAUCUGUCUGUCCUCAGGGACCCUCCAGUAGGGGGACCAUUGGGGACAUCACAGAAGCCACUGUCCAGAUGGGGCUCAGGCCAGUGGGUGUGG,0.293
UUCACCUUUAGGGAUCUCAGCACAAUUAGAAUCGUAAAGUGAAUUCUAUCUAUUUAAUUGGAUAUUGGACUCUGCUCAUAUAAGCUACAGACAAAAGCCAAAAGACUCUC,0.339
AGCCCUUGCACAGCUGGAGAAAUGGCAUCAUUAUAAGCUAUGAGUUGAAAUGUUCUGUCAAAUGUGUCUCACAUCUACACGUGGCUUGGAGGCUUUUAUGGGGCCCUGUC,0.554
CUUGACGGGAGCAUUGGCCCCUGAGCCCAGAGAAGCUGGAAGCCUGCCGAAAACAGGAGCAAAUGGCGUUUUAUAAAUUAUUUUUUUGAAAUAAAGCUCUGUGUGCCUGG,0.403
ACCUUCCUCCGGCCUUCCAUGAGAAGCAGCCACAGGGGGCCUGGUUUCCUCCUAAGGCCCUUCUCUGUCCCAGGCCACCUCUUCUCCCUCCUCCUGUCCCCUAACCUCCA,0.534
AUGUUUUAUUCAAUGUAAAGGAAGACCAAACCAUGUACCUUAUGAAGACCUUUGUUUUAAGACUUCCACACACCAAGGCUACAAUGACUGUUAACCUGGAGGAAGUCUCU,0.456

# Repeated from above (series 1):
Substitution,relative binding score
S9Y,23.1%
L28Y,1.5%
E14V,-0.492%
F103T,-4.76%
E127A,39.5%
R45S,1.87%
R69A,28.5%
S117H,-2.05%
N149M,51.9%
